Literature values as cited in several papers.
Each line is one published result; not all experiments were run side by side. ± gives the spread as reported.
Sequence of UniProt Q8WXR4 (whole entry, looked up): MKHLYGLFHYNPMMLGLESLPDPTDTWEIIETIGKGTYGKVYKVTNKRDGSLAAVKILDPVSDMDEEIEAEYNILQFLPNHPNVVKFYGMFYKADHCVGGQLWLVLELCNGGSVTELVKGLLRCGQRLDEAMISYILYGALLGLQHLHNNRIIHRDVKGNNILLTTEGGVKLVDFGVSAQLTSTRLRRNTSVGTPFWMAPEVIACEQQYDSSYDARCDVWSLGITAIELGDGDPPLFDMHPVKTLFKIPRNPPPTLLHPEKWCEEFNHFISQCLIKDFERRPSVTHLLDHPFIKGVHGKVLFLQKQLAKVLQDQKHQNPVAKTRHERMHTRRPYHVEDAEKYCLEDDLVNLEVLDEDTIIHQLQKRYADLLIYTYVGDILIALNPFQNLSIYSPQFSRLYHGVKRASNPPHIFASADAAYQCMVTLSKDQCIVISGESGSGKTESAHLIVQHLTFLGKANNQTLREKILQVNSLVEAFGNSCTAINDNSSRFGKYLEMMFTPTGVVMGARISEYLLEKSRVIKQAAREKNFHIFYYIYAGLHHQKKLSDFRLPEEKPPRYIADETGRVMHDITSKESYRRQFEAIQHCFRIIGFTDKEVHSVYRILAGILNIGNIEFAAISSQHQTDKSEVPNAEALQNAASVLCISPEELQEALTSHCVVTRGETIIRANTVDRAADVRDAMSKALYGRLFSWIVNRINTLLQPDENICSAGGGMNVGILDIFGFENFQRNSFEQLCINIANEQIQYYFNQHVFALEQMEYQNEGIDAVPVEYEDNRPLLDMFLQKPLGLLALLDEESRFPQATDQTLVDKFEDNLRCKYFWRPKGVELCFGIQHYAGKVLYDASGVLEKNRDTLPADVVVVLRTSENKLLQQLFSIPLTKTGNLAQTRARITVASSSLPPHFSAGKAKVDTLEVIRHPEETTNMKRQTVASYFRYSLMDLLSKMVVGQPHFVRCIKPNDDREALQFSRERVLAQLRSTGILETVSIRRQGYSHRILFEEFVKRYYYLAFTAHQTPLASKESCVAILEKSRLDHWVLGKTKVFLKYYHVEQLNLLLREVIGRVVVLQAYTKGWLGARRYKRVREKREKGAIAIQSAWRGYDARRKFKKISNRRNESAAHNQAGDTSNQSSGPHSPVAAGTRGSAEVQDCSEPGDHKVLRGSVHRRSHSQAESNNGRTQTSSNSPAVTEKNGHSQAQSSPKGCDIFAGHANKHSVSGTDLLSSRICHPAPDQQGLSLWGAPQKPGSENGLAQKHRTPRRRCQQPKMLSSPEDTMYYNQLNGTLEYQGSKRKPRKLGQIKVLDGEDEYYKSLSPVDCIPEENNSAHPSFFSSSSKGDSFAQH

CC(C)(O/N=C(\C(=O)N[C@@H]1C(=O)N2C(C(=O)[O-])=C(C[n+]3ccccc3)CS[C@H]12)c1csc(N)n1)C(=O)O  MIC (Klebsiella pneumoniae; clinical isolate RKI-No_107/15): ≤ 2 mg/L
N/C(CC(O)c1cc2c(F)cc(F)cc2c2cc(C(F)(F)F)ccc12)=N\c1ccc(F)cc1 (stereo not drawn)  IC50 (Plasmodium falciparum; parasite growth; NF54): 0.012 µM
CC1CS(=O)(=O)CCN1/N=C/c1ccc([N+](=O)[O-])o1 (stereo not drawn)  IC50 (Trypanosoma cruzi; CL Brener; trypomastigotes): 20.1 ± 2.9 µM
CC(C)CN(C[C@@H](O)[C@H](Cc1ccccc1)NC(=O)O[C@H]1CO[C@H]2OCC[C@H]21)S(=O)(=O)c1ccc(C(=O)O)cc1  IC50 (HIV-1; viral replication, inhibitor; MT-2, LAI): > 1 µM
Cc1cnc(N2CC3(CCOCC3)C2)c(C(=O)Nc2ccc(C(=O)N3CCc4cc(C(=O)Nc5c(C)cccc5F)sc4-c4ccccc43)cc2)c1  IC50 (respiratory syncytial virus; cytopathic effect; A2): 0.000354 mg/L
CNC(C)C1CCC(N)C(OC2C(N)CC(N)C(OC3OCC(C)(O)C(NC)C3O)C2O)O1 (stereo not drawn)  MIC (Acinetobacter baumannii; clinical isolate RKI-No_231/15): > 8 mg/L
CS(=O)(=O)NCCCNCc1ccc(-c2cccc(-c3nc4cc(C(F)(F)F)ccc4[nH]3)c2)cc1  IC50 (Plasmodium falciparum; whole cell extended time; 3D7; 72 h): 0.85 µM
Nc1[nH]c(=O)ncc1F  IC50 (Candida albicans): 0.93 µM
CC(Cl)=CCc1c(C)[nH]c2c(ccc3ccccc32)c1=O  IC50 (Plasmodium falciparum; whole cell extended time; 3D7; 72 h): 0.2 µM
O=c1c(O)c(-c2ccc(O)c(O)c2)oc2cc(O)cc(O)c12  IC50 (CMV; viral replication): 19.6 µM
CC(C)N(Cc1cnc2nc(N)nc(N)c2n1)c1ccc(Cl)c(Cl)c1  IC50 (Plasmodium falciparum; whole cell extended time; 3D7; 72 h): 0.16 µM
Nc1cc(C(F)(F)F)c(-c2nc(N3CCOCC3)nc(N3CCOCC3)n2)cn1  remaining activity (Myosin-IIIb (MYO3B, Homo sapiens, UniProt Q8WXR4); enzyme activity; 10 µM; relative to: untreated): 100%

Excerpt of the above:
CC1CS(=O)(=O)CCN1/N=C/c1ccc([N+](=O)[O-])o1 (stereo not drawn)  IC50 (Trypanosoma cruzi; CL Brener; trypomastigotes): 20.1 ± 2.9 µM
